Measurements collected from several papers.
Every numbered part comes from another study and shows a few of its results, in no order.

Block 1
Target: Sal-like protein 4, full length isoform A (SALL4, Homo sapiens, UniProt Q9UJQ4, residues 1-1053)
Sequence of UniProt Q9UJQ4 (whole entry, looked up): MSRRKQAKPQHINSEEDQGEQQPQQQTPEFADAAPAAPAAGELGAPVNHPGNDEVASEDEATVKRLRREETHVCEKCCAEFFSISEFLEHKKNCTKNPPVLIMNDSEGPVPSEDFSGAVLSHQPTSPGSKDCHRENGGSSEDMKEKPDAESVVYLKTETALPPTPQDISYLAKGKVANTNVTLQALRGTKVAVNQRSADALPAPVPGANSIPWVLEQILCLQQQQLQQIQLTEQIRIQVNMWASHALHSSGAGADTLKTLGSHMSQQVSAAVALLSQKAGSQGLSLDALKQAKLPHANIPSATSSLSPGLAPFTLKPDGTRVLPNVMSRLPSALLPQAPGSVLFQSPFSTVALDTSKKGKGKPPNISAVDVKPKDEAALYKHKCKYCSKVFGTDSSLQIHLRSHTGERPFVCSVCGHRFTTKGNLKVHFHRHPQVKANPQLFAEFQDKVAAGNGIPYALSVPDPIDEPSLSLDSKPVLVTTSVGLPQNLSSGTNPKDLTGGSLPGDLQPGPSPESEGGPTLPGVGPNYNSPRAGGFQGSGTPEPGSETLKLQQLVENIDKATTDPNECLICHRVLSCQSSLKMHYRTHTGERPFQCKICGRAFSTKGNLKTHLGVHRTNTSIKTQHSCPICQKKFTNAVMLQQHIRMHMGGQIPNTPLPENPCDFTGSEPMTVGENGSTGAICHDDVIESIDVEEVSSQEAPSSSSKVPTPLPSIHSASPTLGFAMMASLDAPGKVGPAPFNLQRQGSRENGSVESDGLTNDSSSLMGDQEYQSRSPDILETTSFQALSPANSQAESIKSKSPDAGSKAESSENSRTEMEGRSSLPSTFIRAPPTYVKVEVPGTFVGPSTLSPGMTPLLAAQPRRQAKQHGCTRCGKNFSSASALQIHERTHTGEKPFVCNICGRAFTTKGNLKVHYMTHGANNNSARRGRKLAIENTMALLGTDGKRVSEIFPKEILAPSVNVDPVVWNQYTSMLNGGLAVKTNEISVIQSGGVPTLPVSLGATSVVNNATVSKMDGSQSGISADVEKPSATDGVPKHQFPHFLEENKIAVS
Technique: universal PBM
Molecule type: double-stranded DNA, one strand shown
Sample: in vitro
Concentration: 600 nM
Setting: 8-mer, flanks averaged, mean of replicates
Direction: higher = stronger binding
`CTCATAGA` has an E-score of 0.146.
`TGCACACA` gave an E-score of 0.0611.
For `AACTAAGC`, the E-score was 0.00128.
`ATAGCCGA` has an E-score of 0.0879.
For `CGGGCAGA`, the E-score was -0.201.
With `GGATGTAA` the E-score was 0.126.
`TCTTTTAA` gave an E-score of 0.26.
`GGAAACAC` gave an E-score of -0.138.
`GGCTGCCC` has an E-score of -0.422.
`GGCCAACA` gave an E-score of -0.15.
With `ACAATATG` the E-score was 0.332.
The E-score of `CGTTCCGC` is reported as -0.156.
`GATGACAA` has an E-score of 0.162.
The E-score of `TCACGGAA` is reported as 0.102.
For `ACGCGTGA`, the E-score was -0.0154.
For `CTATCGAA`, the E-score was 0.257.
The E-score of `GAAAAAAC` is reported as 0.22.
For `CGCTCGTC`, the E-score was -0.234.
`TATGAAAA` gave an E-score of 0.41.
`ATTACTAA` gave an E-score of 0.334.

Block 2
Target: Histone acetyltransferase KAT6A, both winged helices, GST fusion (KAT6A, Homo sapiens, UniProt Q92794, residues 1-181)
Technique: protein binding microarray
Molecule type: double-stranded DNA, one strand shown
Sample: in vitro
Concentration: not given
Setting: 8-mer, flanks averaged, mean of 2 arrays, mostly near background
Baseline: not given
Direction: higher = stronger binding
Target sequence (chain): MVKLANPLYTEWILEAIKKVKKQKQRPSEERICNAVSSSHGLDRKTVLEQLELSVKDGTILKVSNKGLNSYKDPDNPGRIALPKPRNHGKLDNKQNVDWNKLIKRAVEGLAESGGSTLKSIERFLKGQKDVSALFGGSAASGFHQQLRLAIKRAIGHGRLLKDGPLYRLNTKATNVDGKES
`CACCCTGA` has an E-score of -0.205.
With `ACGTAGGC` the E-score was 0.0101.
For `CCCCGGAA`, the E-score was 0.0237.
With `CCACGACC` the E-score was -0.178.
With `CAGTAGCG` the E-score was 0.223.
`GGCGACTA` gave an E-score of -0.0325.
`ACTGGTAA` gave an E-score of -0.101.
`CTATGTCA` has an E-score of -0.215.
`AAGCGCCG` gave an E-score of 0.372.
`AGGGTTAC` gave an E-score of 0.067.
`AACTTTTA` has an E-score of -0.0097.
The E-score of `AATTCTAC` is reported as -0.103.
For `CAGTTGAG`, the E-score was -0.224.
For `AAGCGTAT`, the E-score was 0.156.
With `AAATCGGT` the E-score was 0.00856.
With `CGAAGTCA` the E-score was -0.0387.
The E-score of `CCCACAAA` is reported as -0.151.
With `AATACTCG` the E-score was -0.0252.
`CTGTGGTA` gave an E-score of -0.0927.
For `GACCTGTA`, the E-score was -0.0479.
The E-score of `CGAACGGA` is reported as 0.191.
`GTATTGGA` has an E-score of -0.0493.
`GGGAGATA` gave an E-score of -0.12.
With `TCTCTTCA` the E-score was -0.0581.
For `CGGGGCGC`, the E-score was 0.242.

Block 3
Target: Interferon regulatory factor 5, full length, phosphomimetic (IRF5, Homo sapiens, UniProt Q13568-2, residues 1-514, K96S/S451D/S453D/S456D/S462D)
Technique: protein-binding microarray
Molecule type: double-stranded DNA, one strand shown
Sample: in vitro
Concentration: 250 nM
Setting: 60-bp whole probe
With: salmon DNA 0.4 mg/ml
Baseline: random background probes
Direction: higher = stronger binding
All sequences stand within: GCCTAGCAC … GTCTTGATTCGCTTGACGCTGCTG
For `TTAGGACTGTACACTGGGTTAGTGCTA`, the log fluorescence was 0.0377 z-score.
With `GACGGACTGGGGTTTCGGGTCGTGCTA` the log fluorescence was 2.25 z-score.
`GACGAACTGAGTTTCGACACGTGCTAG` gave a log fluorescence of 5.41 z-score.
For `GACGATTTGGGGACTGGAGACGTGCTA`, the log fluorescence was -0.196 z-score.
`TTAGGTATGGACACTGGGTTAGTGCTA` has a log fluorescence of -0.166 z-score.
With `GACGATTTCGGACTGGAGACGTGCTAG` the log fluorescence was 1.32 z-score.
`GACGAACTGAGTCTTGAGACGTGCTAG` has a log fluorescence of -0.343 z-score.
`CAGGCAGGAGAAGTGAATGAGTGCTAG` gave a log fluorescence of -0.412 z-score.
`TCAGATATCAGACTGGATTAGTGCTAG` has a log fluorescence of 0.0148 z-score.
`TTAGGACTCGACTTTCGGTTAGTGCTA` gave a log fluorescence of 9.61 z-score.
`CGATTACAGCTAGGTAGTGGGTGCTAG` gave a log fluorescence of -0.284 z-score.
`GACGAACTGGGGTATCGAGGCGTGCTA` has a log fluorescence of -0.148 z-score.
`TTAGGACTGGGGTATCGGTTCGTGCTA` gave a log fluorescence of 1.49 z-score.
`TTAGATTTCGGGTAGCGATTAGTGCTA` gave a log fluorescence of 5.55 z-score.
For `GACGCTTTCGGTATCGGGACGTGCTAG`, the log fluorescence was 10.3 z-score.
`TTAGCTTTCGGGTTTCGGTTAGTGCTA` has a log fluorescence of 10.2 z-score.
The log fluorescence of `TATGCTTTCTTTAACTCATTGTGCTAG` is reported as 1.28 z-score.
For `TTAGAGCTCAGTTTCGATTAGTGCTAG`, the log fluorescence was 9.4 z-score.
The log fluorescence of `CGGGCTTTCCCGTCCAGGGCGTGCTAG` is reported as -0.225 z-score.

Block 4
Target: RNA binding protein fox-1 homolog 2, RRM domain, GST-SBP tag (RBFOX2, Homo sapiens, UniProt O43251-10, residues 100-194)
Technique: RNA Bind-n-Seq
Molecule type: RNA
Sample: in vitro
Concentration: 365 nM
Setting: natural RNA segment, single round, ends assumed
Baseline: no-protein control
Direction: higher = stronger binding
Construct (chain): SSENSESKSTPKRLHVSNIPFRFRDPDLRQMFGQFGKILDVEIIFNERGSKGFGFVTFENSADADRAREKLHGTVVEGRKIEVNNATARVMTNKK
For `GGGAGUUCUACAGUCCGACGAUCUGCAGAAGAGACAUGCAGCAGUAGCGCUGGCGCCAUCUGCAGGAGCUGGCGGGCUGGCCUUCUGGACCCUGGCUUCUCCCCACUGUAACGCCUGUUACACACAAACUGUUUGGAAUUCUCGGGUGCCAA`, “RBNS enrichment (R)” read 0.444.
Under “RBNS enrichment (R)”, `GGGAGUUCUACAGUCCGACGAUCGACUAACUCUACUGUGAAGUCCCACCACAUUCCAGGUUGGAAUUUUAGAUUCAGGGUGGAUUUUCCCUGCCGUGGAAGAACACAGGCAUCUCCCUAGCUUUCUCACGCUAUGGAAUUCUCGGGUGCCAA` is recorded as 0.724.
Under “RBNS enrichment (R)”, `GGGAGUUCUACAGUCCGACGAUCUUAGCCAGCUAGUGACGAGUACAACGAGAUAACGCCCAUGUGUUUUGGAACAUUUAUGUAAGAUUGUCAUAUGAAAUGUAUUUGGGAACUACAUUAAACUUUUAACUAAAUGGAAUUCUCGGGUGCCAA` is recorded as 1.02.
Under “RBNS enrichment (R)”, `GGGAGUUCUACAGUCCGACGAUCUUUGGGGAGUGUGUUUUGUCUGUUCUUCAAUGAAGGAUCAAUCCAGUGUUCUUCAUCAAUGUUAGUUAAUAUCCCAUUGCUUGUGUGGCGCCUUGAGUUGGUGGUAGACUUGGAAUUCUCGGGUGCCAA` is recorded as 6.13.
Under “RBNS enrichment (R)”, `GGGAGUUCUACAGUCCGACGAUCAUGGGCCUAAACUAUGAGAGUUCAGAAAUAUAUAAAAGUACAAAAAUCUUCAAAGGUACUUAUUUCCAAAUAUGGAGGGAAUGAAUCUGAAGAGGGAACAAUGGCGUUUUUGGAAUUCUCGGGUGCCAA` is recorded as 0.425.
`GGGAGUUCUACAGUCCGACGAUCGAUUUUUGAAUGUGAUUUUAAAGAGUGAAAAAUGAGACUAUGCGUUUUUAUAAAAAAUGGUGCCUGAUUCGGCUGUCUCAGACUCUUUUUGUACCUGGUGACCCCUUUUCUGGAAUUCUCGGGUGCCAA`: “RBNS enrichment (R)” 3.35.
`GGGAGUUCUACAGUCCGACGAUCCUGCAAAGCCCUGUCAGACAGACUGGGCCCUUCCAAGGUCAAGCCAUGUGUCUGAUGACAUUCCUGGUGAAGCAAAGGAGAGGAGGAUGGGUCAGCCCUCACUGGGUGUCUGGAAUUCUCGGGUGCCAA`: “RBNS enrichment (R)” 0.216.
For `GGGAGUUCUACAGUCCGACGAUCUUUGAGCAGCCAUAUUAUAAAAUGGAUCAUCAGAGCUGAGUGACAACACGAGAGUGGUACUGGUUUCAUGUGCGAGGACUUCCAUGGACUGAACAUGGAUGCCGGAGCAGUGGAAUUCUCGGGUGCCAA`, “RBNS enrichment (R)” read 0.26.
